# Published values collected from several papers.
# Compare with care: the assays were run in different laboratories. Several values in a cell are separate wells, animals, samples, runs or records. Numbers after ± are the reported error.
# B1: human RBMX; sequence looked up; chain MVEADRPGKLFIGGLNTETNEKALEAVFGKYGRIVEVLLMKDRETNKSRGFAFVTFESPADAKDAARDMNGKSLDGKAIKVEQATKPSFESGRRGPPPPPRSRGPPRGLRGGRGGSGGTRGPPSRGGHMDDGGYSMNFNMSSSRGPLPVKRGPPPRSGGPPPKRSAPSGPVRSSSGMGGRAPVSRGRDSYGGPPRREPLPSRRDVYLSPRDDGYSTKDSYSSRDYPSSRDTRDYAPPPRDYTYRDYGHSSSRDDYPSRGYSDRDGYGRDRDYSDHPSGGSYRDSYESYGNSRSAPPTRGPPPSYGGSSRYDDYSSSRDGYGGSRDSYSSSRSDLYSSGRDRVGRQERGLPPSMERGYPPPRDSYSSSSRGAPRGGGRGGSRSDRGGGRSRY
# B2: palladin, human; sequence looked up; chain MSGTSSHESFYDSLSDMQEESKNTDFFPGLSAFLSQEEINKSLDLARRAIADSETEDFDSEKEISQIFSTSPASLCEHPSHKETKLGEHASRRPQDNRSTPVQPLAEKQTKSISSPVSKRKPAMSPLLTRPSYIRSLRKAEKRGAKTPSTNVKPKTPHQRKGGPQSQLCDKAANLIEELTSIFKAAKPRNRSPNGESSSPDSGYLSPKNQPSALLSASASQSPMEDQGEMEREVKSPGARHCYQDNQDLAVPHNRKSHPQPHSALHFPAAPRFIQKLRSQEVAEGSRVYLECRVTGNPTPRVRWFCEGKELHNTPDIQIHCEGGDLHTLIIAEAFEDDTGRYTCLATNPSGSDTTSAEVFIEGASSTDSDSESLAFKSRAGAMPQAQKKTTSVSLTIGSSSPKTGVTTAVIQPLSVPVQQVHSPTSYLCRPDGTTTAYFPPVFTKELQNTAVAEGQVVVLECRVRGAPPLQVQWFRQGSEIQDSPDFRILQKKPRSTAEPEEICTLVIAETFPEDAGIFTCSARNDYGSATSTAQLVVTSANTENCSYESMGESNNDHFQHFPPPPPILETSSLELASKKPSEIQQVNNPELGLSRAALQMQFNAAERETNGVHPSRGVNGLINGKANSNKSLPTPAVLLSPTKEPPPLLAKPKLDPLKLQQLQNQIRLEQEAGARQPPPAPRSAPPSPPFPPPPAFPELAACTPPASPEPMSALASRSAPAMQSSGSFNYARPKQFIAAQNLGPASGHGTPASSPSSSSLPSPMSPTPRQFGRAPVPPFAQPFGAEPEAPWGSSSPSPPPPPPPVFSPTAAFPVPDVFPLPPPPPPLPSPGQASHCSSPATRFGHSQTPAAFLSALLPSQPPPAAVNALGLPKGVTPAGFPKKASRTARIASDEEIQGTKDAVIQDLERKLRFKEDLLNNGQPRLTYEERMARRLLGADSATVFNIQEPEEETANQEYKVSSCEQRLISEIEYRLERSPVDESGDEVQYGDVPVENGMAPFFEMKLKHYKIFEGMPVTFTCRVAGNPKPKIYWFKDGKQISPKSDHYTIQRDLDGTCSLHTTASTLDDDGNYTIMAANPQGRISCTGRLMVQAVNQRGRSPRSPSGHPHVRRPRSRSRDSGDENEPIQERFFRPHFLQAPGDLTVQEGKLCRMDCKVSGLPTPDLSWQLDGKPVRPDSAHKMLVRENGVHSLIIEPVTSRDAGIYTCIATNRAGQNSFSLELVVAAKEAHKPPVFIEKLQNTGVADGYPVRLECRVLGVPPPQIFWKKENESLTHSTDRVSMHQDNHGYICLLIQGATKEDAGWYTVSAKNEAGIVSCTARLDVYTQWHQQSQSTKPKKVRPSASRYAALSDQGLDIKAAFQPEANPSHLTLNTALVESEDL
# B3: adiponectin; sequence looked up; chain ETTTQGPGVLLPLPKGACTGWMAGIPGHPGHNGAPGRDGRDGTPGEKGEKGDPGLIGPKGDIGETGVPGAEGPRGFPGIQGRKGEPGEGAYVYRSAFSVGLETYVTIPNMPIRFTKIFYNQQNHYDGSTGKFHCNIPGLYYFAYHITVYMKDVKVSLFKKDKAMLFTYDQYQENNVDQASGSVLLHLEVGDQVWLQVYGEGERNGLYADNDNDSTFTGFLLYHDTN
Substance,target or system,assay,test system,conditions,how to read,measurement,value
YEQDPWGVKWWY,mouse bone marrow-derived macrophages,"qPCR, item: Fizz1",peptide,"concentration not given, with: IL-4",,mRNA level,decreased
recombinant human interleukin-1 beta,enteroid monolayers,item: ABCG2,,"1 ng/mL, 48 h",,mRNA level,decreased
B1 (human RBMX),CYB5R4 knockout human cells,"PP6 interaction, 3xFLAG-PP6C IP-MS",,concentration not given,reference: CYB5R4 KO over parental,log2 fold change,-0.47
monocyte chemoattractant protein-1,THP-1 monocytes,"real-time RT-PCR, item: IL8, IL1B and TNFA",,"50 ng/mL, 24 h",,mRNA level,increased
recombinant human interleukin-6,enteroid monolayers,item: ABCG2,,"1 ng/mL, 48 h",,mRNA level,decreased
Pam2CSK4,BV-2,"RT-qPCR, item: Msr1",,"concentration not given, unit not given",reference: untreated,mRNA level,2.76 and 3.23 and 2.7
epoetin alfa,UT7/EPO,"microarray, item: CISH mRNA (probe set 223377_x_at)",,"5 U/mL, 90 min",reference: vehicle,mRNA level,6.5 fold
"B2 (palladin, human)",CYB5R4 knockout human cells,"PP6 interaction, 3xFLAG-PP6C IP-MS",,concentration not given,reference: CYB5R4 KO over parental,log2 fold change,-0.95
B3 (adiponectin),HUVEC,"real-time PCR, item: CXCL11",,"15 µg/mL, 24 h, unit not given, with: TNF-α and IFN-γ",reference: stimulated untreated,mRNA level,0.94 ± 0.13
Peginesatide,UT7/EPO,"RT-qPCR, item: OSM",,"concentration not given, 90 min, normalized to HPRT1",reference: vehicle,mRNA level,100 fold
colistin,Enterobacter cloacae,,clinical isolate RKI 571/13,,,MIC,≤ 0.5 µg/mL

# Some of these lines once more:
Substance,target or system,assay,test system,conditions,how to read,measurement,value
Peginesatide,UT7/EPO,"RT-qPCR, item: OSM",,"concentration not given, 90 min, normalized to HPRT1",reference: vehicle,mRNA level,100 fold
B1 (human RBMX),CYB5R4 knockout human cells,"PP6 interaction, 3xFLAG-PP6C IP-MS",,concentration not given,reference: CYB5R4 KO over parental,log2 fold change,-0.47
